Measurements pooled from the literature.
Each numbered part is a random draw from the data of one study; scales do not carry over between parts. “And” joins repeats or separate records; there may be more than shown.
UniProt Q9UQM7, sequence (whole entry, looked up): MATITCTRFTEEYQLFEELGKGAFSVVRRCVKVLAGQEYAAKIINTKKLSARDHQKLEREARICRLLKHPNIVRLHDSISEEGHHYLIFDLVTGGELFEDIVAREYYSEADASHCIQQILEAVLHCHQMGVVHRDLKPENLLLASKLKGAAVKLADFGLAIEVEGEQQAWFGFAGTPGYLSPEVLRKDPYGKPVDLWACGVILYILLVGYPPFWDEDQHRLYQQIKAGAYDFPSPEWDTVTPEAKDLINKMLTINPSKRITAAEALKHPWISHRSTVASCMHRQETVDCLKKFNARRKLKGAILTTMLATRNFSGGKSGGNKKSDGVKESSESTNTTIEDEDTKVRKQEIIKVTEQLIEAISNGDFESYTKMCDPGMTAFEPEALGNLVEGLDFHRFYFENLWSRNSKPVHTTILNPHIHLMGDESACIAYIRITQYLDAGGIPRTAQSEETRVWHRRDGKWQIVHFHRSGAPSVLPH
UniProt P10721, sequence (whole entry, unmodified, looked up): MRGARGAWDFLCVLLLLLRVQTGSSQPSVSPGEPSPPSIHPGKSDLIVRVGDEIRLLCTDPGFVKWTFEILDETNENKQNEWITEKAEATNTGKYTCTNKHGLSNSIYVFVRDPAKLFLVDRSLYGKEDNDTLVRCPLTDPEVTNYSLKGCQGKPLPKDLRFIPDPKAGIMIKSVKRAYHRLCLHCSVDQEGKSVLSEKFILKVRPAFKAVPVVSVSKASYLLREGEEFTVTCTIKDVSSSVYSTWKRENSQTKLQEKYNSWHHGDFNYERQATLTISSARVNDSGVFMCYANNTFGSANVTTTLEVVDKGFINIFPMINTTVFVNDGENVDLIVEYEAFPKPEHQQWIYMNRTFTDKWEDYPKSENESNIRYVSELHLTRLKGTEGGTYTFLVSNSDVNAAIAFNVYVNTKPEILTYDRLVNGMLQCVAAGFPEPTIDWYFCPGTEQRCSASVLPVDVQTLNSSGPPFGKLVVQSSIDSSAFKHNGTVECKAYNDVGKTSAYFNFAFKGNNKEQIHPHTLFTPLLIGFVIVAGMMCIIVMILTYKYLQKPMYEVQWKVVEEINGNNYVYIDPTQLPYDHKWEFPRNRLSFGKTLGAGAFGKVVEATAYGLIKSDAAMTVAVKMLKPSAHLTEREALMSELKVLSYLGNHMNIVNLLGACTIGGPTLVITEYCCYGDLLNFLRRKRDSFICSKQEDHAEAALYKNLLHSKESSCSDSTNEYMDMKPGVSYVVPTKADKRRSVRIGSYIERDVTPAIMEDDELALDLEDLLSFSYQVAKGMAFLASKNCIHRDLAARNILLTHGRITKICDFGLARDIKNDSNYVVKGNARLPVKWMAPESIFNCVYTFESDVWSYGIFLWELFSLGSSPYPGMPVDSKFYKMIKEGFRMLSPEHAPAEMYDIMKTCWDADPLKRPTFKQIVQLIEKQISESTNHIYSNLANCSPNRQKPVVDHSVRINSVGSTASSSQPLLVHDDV
UniProt Q13188, sequence (whole entry, looked up): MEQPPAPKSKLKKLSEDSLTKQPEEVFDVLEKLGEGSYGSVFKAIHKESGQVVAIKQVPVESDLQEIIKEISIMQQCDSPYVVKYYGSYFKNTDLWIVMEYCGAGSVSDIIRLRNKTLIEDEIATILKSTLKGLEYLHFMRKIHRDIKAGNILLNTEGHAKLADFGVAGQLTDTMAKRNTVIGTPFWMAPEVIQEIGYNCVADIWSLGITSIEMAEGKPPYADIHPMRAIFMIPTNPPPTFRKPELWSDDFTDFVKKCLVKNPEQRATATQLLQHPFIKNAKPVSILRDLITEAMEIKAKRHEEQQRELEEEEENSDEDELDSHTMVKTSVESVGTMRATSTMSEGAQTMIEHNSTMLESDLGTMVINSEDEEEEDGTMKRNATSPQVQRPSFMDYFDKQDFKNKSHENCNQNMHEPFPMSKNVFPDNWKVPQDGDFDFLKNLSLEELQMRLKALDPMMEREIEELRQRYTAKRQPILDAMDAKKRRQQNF

Set 1 — read-out: enzyme activity; mode: inhibitor; tested at: 0.5 µM; reference: control
Target: RAC-alpha serine/threonine-protein kinase (AKT1, Homo sapiens, UniProt P31749)
UniProt P31749, sequence (whole entry, looked up): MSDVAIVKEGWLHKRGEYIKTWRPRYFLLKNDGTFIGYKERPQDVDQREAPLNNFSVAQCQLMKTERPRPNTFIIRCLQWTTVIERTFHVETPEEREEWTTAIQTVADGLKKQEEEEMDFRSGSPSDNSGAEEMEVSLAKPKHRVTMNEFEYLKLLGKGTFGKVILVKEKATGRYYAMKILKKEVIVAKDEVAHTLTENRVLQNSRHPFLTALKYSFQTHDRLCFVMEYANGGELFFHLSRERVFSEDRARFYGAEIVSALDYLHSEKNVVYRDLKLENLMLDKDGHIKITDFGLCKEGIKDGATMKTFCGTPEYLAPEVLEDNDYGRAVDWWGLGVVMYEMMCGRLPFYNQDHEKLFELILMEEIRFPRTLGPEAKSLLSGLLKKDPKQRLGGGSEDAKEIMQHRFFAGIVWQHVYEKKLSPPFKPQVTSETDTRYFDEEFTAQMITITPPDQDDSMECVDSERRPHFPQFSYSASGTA
Structure (SMILES) | remaining activity [%]
CCN(CC)CCNC(=O)c1c(C)[nH]c(/C=C2\C(=O)Nc3ccc(Cl)cc32)c1C | 102
COc1cc2c(cc1OC)-c1[nH]nc(Nc3cccc(F)c3)c1C2 | 93.3
c1ccc(-c2[nH]ncc2-c2ccnc3ccccc23)nc1 | 100
O=C1C(Cl)=C(N2C(=O)CCC2=O)C(=O)c2ccccc21 | 103
N#Cc1c(NC(=O)c2cccc3ccccc23)sc2c1CCCC2 | 101
Cc1cc2ncc(-c3ccccc3)nc2cc1C | 101
Nc1cccc(-c2cc3c(Oc4cccc(O)c4)ncnc3[nH]2)c1 | 92.5
Cc1nc2cc3nc(-c4cccs4)cnc3cc2n1C | 114
COc1cc2ncnc(Nc3cccc(Cl)c3)c2cc1OC | 89.9
CN(C)C[C@H]1CCn2c(c(C3=C(c4cn(C)c5ccccc45)C(=O)NC3=O)c3ccccc32)C1 | 98.7
c1ccc(-c2cnc(Nc3ccc(OCCN4CCCC4)cc3)s2)cc1 | 101
O=C(Nc1cccc(Nc2nccc(Nc3cccc(C(F)(F)F)c3)n2)c1)C1CC1 | 109
Cc1cn(-c2cc(NC(=O)c3ccc(C)c(Nc4nccc(-c5cccnc5)n4)c3)cc(C(F)(F)F)c2)cn1 | 99.7
O=C1c2ccccc2-c2n[nH]c3cccc1c23 | 102
CCN(CC)C(=O)c1ccc(Nc2nc(OCC3CCCCC3)c3[nH]cnc3n2)cc1 | 98.8
Ic1cccc(CSc2nnc(-c3ccncc3)o2)c1 | 98.6
N#C/C(=C\c1ccc(O)c(O)c1)C(=O)NCc1ccccc1 | 101
O=c1cc(-c2cccc3c2Sc2ccccc2S3)oc(N2CCOCC2)c1 | 113
COc1cc2ncnc(Nc3ccc(O)c(Br)c3)c2cc1OC | 94
CCOc1nc(NC(=O)Cc2cc(OC)ccc2OC)cc(N)c1C#N | 102
CN([C@@H](Cc1ccc(OS(=O)(=O)c2cccc3cnccc23)cc1)C(=O)N1CCN(c2ccccc2)CC1)S(=O)(=O)c1cccc2cnccc12 | 102
Cn1nc2c3c(cccc31)C(=O)c1ccccc1-2 | 99.1
O=C(NC(NC(=S)Nc1ccc(F)c([N+](=O)[O-])c1)C(Cl)(Cl)Cl)C(c1ccccc1)c1ccccc1 (stereo not shown) | 118

Set 2 — read-out: cell-free assay; method: competition with immobilised ligand; tested at: 1 µM
SMILES: Cc1nc(C2CCN(C(=O)c3ccc(OC(F)(F)F)cc3N)CC2)c2ncc(N3CCN(C)CC3)cc2n1
target | remaining binding
ERBB3 (Homo sapiens, UniProt P21860) | 88%
MAP3K14 (Homo sapiens, UniProt Q99558) | 100%
Ribosomal protein S6 kinase alpha-4, C-terminal kinase domain (RPS6KA4, Homo sapiens, UniProt O75676) | 93%
EGFR (Homo sapiens, UniProt P00533, G719S) | 100%
MAP2K2 (Homo sapiens, UniProt P36507) | 100%
CAMK2A (Homo sapiens, UniProt Q9UQM7) | 93%
HIPK1 (Homo sapiens, UniProt Q86Z02) | 100%
Ribosomal protein S6 kinase alpha-3, N-terminal kinase domain (RPS6KA3, Homo sapiens, UniProt P51812) | 100%
STK3 (Homo sapiens, UniProt Q13188) | 79%
PIKFYVE (Homo sapiens, UniProt Q9Y2I7) | 100%
SNRK (Homo sapiens, UniProt Q9NRH2) | 78%
CSNK1A1 (Homo sapiens, UniProt P48729) | 100%
Tyrosine-protein kinase ABL1, non-phosphorylated (ABL1, Homo sapiens, UniProt P00519) | 92%
SRPK2 (Homo sapiens, UniProt P78362) | 74%
RAF1 (Homo sapiens, UniProt P04049) | 77%
BMX (Homo sapiens, UniProt P51813) | 100%
CDKL1 (Homo sapiens, UniProt Q00532) | 89%
ROCK1 (Homo sapiens, UniProt Q13464) | 100%
TNK1 (Homo sapiens, UniProt Q13470) | 100%
KIT (Homo sapiens, UniProt P10721, A829P) | 86%
BRSK1 (Homo sapiens, UniProt Q8TDC3) | 100%
NEK10 (Homo sapiens, UniProt Q6ZWH5) | 100%
SBK3 (Homo sapiens, UniProt P0C264) | 77%
CDKL5 (Homo sapiens, UniProt O76039) | 89%
EGFR (Homo sapiens, UniProt P00533, L861Q) | 100%

Set 3 — read-out: enzyme activity; mode: inhibitor; tested at: 10 µM
Target: Calcium/calmodulin-dependent protein kinase type II subunit alpha (CAMK2A, Homo sapiens, UniProt Q9UQM7)
SMILES | inhibition
C[C@H]1NCc2cc(-c3ccc4c(=O)c(C(=O)O)cn(C5CC5)c4c3OC(F)F)ccc21 | -9%
CC(=O)c1ccc[nH]1 | 18%
O=C(CCc1ccc(O)cc1)c1c(O)cc(O)cc1O[C@@H]1O[C@H](CO)[C@@H](O)[C@H](O)[C@H]1O | 22%
COc1ccc(-c2cc(=O)c3c(OC)cc(OC)c(OC)c3o2)cc1 | -18%
CC(=O)O[C@H]1Cc2cc3c(cc2[C@H]2N(C)Cc4c(ccc5c4OCO5)[C@@]12C)OCO3 | 4%
CCn1cc(C(=O)O)c(=O)c2cc(F)c(N3CCNC(C)C3)c(F)c21 (stereo not shown) | -1%
CO/N=C(\C(=O)N[C@@H]1C(=O)N2C(C(=O)O)=C(Cn3ccc(=N)n3CCO)CS[C@H]12)c1csc(N)n1 | -15%
COc1cc(CC(=O)O)ccc1O | -14%
NC(N)=O | -7%
OC[C@H]1O[C@H](OC[C@H]2O[C@H](O[C@H]3[C@H](O)[C@@H](O)[C@@H](O)O[C@@H]3CO)[C@H](O)[C@@H](O)[C@@H]2O[C@H]2O[C@H](CO)[C@@H](O)[C@H](O)[C@H]2O)[C@H](O)[C@@H](O)[C@@H]1O | -0.51% and 0.05%

Set 4 — read-out: enzyme activity; mode: inhibitor; tested at: 77 µM; reference: untreated
Target: DNA polymerase theta, ATPase domain (POLQ, Homo sapiens, UniProt O75417)
UniProt O75417, sequence (whole entry, unmodified, looked up): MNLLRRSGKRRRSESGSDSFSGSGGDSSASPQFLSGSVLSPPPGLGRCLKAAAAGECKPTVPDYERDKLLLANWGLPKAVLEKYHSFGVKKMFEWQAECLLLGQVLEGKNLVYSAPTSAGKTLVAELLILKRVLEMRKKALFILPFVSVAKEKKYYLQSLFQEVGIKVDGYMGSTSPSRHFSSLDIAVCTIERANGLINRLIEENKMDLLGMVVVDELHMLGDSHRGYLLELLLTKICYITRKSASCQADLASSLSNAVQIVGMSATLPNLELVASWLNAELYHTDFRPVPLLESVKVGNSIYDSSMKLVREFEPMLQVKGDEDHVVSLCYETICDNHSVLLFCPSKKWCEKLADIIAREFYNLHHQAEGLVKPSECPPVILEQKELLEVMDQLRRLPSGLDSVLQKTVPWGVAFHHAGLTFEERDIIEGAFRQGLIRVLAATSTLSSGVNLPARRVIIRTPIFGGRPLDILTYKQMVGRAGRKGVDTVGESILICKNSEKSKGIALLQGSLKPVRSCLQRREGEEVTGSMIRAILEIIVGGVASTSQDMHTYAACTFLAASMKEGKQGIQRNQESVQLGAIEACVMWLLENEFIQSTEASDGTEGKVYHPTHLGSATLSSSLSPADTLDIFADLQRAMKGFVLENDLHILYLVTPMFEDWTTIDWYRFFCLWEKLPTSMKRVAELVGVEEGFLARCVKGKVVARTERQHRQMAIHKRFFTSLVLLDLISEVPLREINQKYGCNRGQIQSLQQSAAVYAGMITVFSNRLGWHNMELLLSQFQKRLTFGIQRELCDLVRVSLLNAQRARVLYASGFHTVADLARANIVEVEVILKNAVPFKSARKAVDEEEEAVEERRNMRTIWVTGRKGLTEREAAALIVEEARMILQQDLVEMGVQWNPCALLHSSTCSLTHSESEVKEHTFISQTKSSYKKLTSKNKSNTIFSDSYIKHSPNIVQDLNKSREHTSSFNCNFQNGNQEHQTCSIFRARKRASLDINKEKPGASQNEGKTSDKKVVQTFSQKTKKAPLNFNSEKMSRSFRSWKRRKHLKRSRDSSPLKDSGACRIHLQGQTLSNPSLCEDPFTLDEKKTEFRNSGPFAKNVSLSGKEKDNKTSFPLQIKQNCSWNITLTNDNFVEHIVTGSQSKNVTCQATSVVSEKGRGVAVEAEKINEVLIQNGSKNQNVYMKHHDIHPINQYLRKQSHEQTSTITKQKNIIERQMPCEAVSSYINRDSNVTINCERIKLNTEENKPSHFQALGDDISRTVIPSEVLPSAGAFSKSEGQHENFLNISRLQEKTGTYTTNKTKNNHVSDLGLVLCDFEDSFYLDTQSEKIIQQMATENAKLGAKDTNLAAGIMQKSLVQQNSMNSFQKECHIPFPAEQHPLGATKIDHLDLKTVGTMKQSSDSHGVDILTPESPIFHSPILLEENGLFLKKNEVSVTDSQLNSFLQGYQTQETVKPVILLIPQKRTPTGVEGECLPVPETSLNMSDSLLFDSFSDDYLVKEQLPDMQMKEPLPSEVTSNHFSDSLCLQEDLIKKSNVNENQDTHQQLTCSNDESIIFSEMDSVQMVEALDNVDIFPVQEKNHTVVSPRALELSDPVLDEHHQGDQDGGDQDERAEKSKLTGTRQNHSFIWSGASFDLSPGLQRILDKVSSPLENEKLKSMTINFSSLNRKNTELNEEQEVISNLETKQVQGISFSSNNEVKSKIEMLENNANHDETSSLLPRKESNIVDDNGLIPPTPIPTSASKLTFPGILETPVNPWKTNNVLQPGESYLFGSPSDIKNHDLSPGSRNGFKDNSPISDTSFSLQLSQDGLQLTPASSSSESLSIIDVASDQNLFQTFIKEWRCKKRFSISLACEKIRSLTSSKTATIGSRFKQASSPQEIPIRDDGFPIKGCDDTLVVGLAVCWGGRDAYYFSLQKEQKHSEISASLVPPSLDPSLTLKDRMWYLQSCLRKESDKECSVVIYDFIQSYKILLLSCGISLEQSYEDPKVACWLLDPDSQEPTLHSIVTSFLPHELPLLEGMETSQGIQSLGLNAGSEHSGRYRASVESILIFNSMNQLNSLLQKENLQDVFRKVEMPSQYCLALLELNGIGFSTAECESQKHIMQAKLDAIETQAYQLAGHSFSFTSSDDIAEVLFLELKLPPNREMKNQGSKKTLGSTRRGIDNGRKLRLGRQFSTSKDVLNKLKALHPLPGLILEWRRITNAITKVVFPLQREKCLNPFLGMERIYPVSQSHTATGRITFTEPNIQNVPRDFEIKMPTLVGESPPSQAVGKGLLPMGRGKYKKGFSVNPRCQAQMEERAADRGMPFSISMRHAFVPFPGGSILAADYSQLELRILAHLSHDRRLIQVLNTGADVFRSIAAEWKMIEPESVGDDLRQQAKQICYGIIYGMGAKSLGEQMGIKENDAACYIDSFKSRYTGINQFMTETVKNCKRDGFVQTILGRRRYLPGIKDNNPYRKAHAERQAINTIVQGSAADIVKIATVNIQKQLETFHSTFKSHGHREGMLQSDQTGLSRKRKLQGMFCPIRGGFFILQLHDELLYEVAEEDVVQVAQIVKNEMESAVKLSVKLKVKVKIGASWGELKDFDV
SMILES | remaining activity
OCCOc1ccc(/C(=C(/CCCl)c2ccccc2)c2ccccc2)cc1 | 101%
CC1(C)NC(=O)N(c2ccc([N+](=O)[O-])c(C(F)(F)F)c2)C1=O | 96.1% and 105%
CC1COc2c(N3CCN(C)CC3)c(F)cc3c(=O)c(C(=O)O)cn1c23 (racemic) | 99.8%
Cc1nc(=O)c2cc(CN(C)c3ccc(C(=O)N[C@@H](CCC(=O)O)C(=O)O)s3)ccc2[nH]1 | 89.5%
C[C@H]1[C@H](NC(=O)/C(=N\OC(C)(C)C(=O)O)c2csc(N)n2)C(=O)N1S(=O)(=O)O | 102% and 101%
CC[C@@H]1C(=O)N(C)c2cnc(Nc3ccc(C(=O)N[C@H]4CC[C@H](N5CCN(CC6CC6)CC5)CC4)cc3OC)nc2N1C(C)C | 99.9%
CC(C(=O)O)c1ccc(N2Cc3ccccc3C2=O)cc1 (stereo not shown) | 88.3%
C/C=C(/C(=C/C)c1ccc(O)cc1)c1ccc(O)cc1 | 95.9%
C=CCN1CCCC1CNC(=O)c1cc2nn[nH]c2cc1OC (stereo not shown) | 96.5%

Repeated from above (set 3):
SMILES | inhibition
CCn1cc(C(=O)O)c(=O)c2cc(F)c(N3CCNC(C)C3)c(F)c21 (stereo not shown) | -1%
CO/N=C(\C(=O)N[C@@H]1C(=O)N2C(C(=O)O)=C(Cn3ccc(=N)n3CCO)CS[C@H]12)c1csc(N)n1 | -15%
COc1cc(CC(=O)O)ccc1O | -14%
NC(N)=O | -7%
